Measured values collected from several papers.
Numbered parts are unrelated; each lists some results of a single study. Changes are numbered by the printed parent chain.

Set 1
Target: RNA binding protein fox-1 homolog 2, RRM domain, GST-SBP tag (RBFOX2, Homo sapiens, UniProt O43251-10, residues 100-194)
Method: RNA Bind-n-Seq
Molecule type: RNA
Sample: in vitro
Tested at: 365 nM
Setting: natural RNA segment, single round, ends assumed
Reference: no-protein control
Direction: higher = stronger binding
Endpoint: RBNS enrichment (R)
Constant ends, left off below: GGGAGUUCUACAGUCCGACGAUC … UGGAAUUCUCGGGUGCCAA
Residues (chain): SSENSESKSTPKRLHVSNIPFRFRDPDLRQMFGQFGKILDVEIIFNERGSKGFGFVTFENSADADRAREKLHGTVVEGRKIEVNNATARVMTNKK
Oligonucleotide = UCUCUUGUUUUCAGGGAAAGAACAUAAAAGCUUUUUGAACUACAGCCUUUUUAAAAGAGGGAUGGGAGGAUAUUACAGUAAGAAAUUAGGCUUUCUAAAAGUAUGAAACA; value = 0.452
Oligonucleotide = UUCCAUAAGUAGAACAAGAUAGAUUCUACCCCCAAAAUAUUCAUAAGCAAAUCCCACUGCCCUUAAAAUAAGGAAGUUAUGCCUGGUUGUCUGUGAAUGGAACCUCAGUA; value = 0.65
Oligonucleotide = GUCCUCCACCAGUUCUCCAUGCGCACCUCUGCAUGUCCGGCACUAGAAUCCCUGAACACUACUUCACACCUCCCCCACUGCCAGUUGGUUGAUGCUCUAGAGCCACUCUU; value = 9.4
Oligonucleotide = GUCGCUGAUCUCCCGGAGGAGGAGGCUGUUGACCUGAAAACAGUGGCGUGGCUCCCCUGUGCCCAGAUCUGGCCAUGGGUGAGGCCUGCACAGAUGUUGAAUGAACAUCU; value = 0.492
Oligonucleotide = AGCAGAGCCUGAAAUUAAACUCAUUUGUUUCCAGCAUCCGUGUGUUUGCACAAAGGAUUUGACGCCACAGGAGUGUGUGAGGAAGACAGGGCGGGCUGAGGGCAGAAGGC; value = 1.36
Oligonucleotide = UUGAGACAUCACAUUAUUCAUCCUGUGUCCAAGACUCAGAUAUUCUGCCCCAGUCAAAAUCAUCUUGUGCCAAAAAAUUAGAGGUUUGAUUCAUCGUGUCCCUGUUUGAA; value = 0.441
Oligonucleotide = CUUUUUUUAAAAAAAAAAAGUCCUCAAAUCAGGAAGAAACAUCAAAGACUAUGUCCUAGUGGAGGGAGUAAUCCUAACACCCAGGCUGGCCGCCAGCUGGCACCUGCCUC; value = 0.254
Oligonucleotide = UAUAGUUCCUGCUGUUAACAUUACCUUUUGAAACCUUGGCUCCAGUUUUGGUGCUUCUUAUACAAAUUAAAUGCGAAAAGGGACUGUAAACUUAAGAUGUAUUUUAAGGA; value = 0.411

Set 2
Target: ABI1, truncated, D143A, DHFR fusion (Arabidopsis thaliana)
Method: DHFR PCA, deep sequencing
Sample: yeast
Setting: methotrexate growth selection, single substitutions
Added: (+)-ABA 0.032 µM
Reference: wild-type fitted maximum
Direction: higher = stronger binding
Endpoint: relative binding score
Parent: PYL1, truncated, DHFR fusion (Arabidopsis thaliana); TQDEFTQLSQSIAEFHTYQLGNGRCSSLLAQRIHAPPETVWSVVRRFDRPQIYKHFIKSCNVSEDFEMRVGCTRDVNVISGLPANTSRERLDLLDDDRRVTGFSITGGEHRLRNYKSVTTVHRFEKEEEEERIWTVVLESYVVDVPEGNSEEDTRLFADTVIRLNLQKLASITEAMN; partner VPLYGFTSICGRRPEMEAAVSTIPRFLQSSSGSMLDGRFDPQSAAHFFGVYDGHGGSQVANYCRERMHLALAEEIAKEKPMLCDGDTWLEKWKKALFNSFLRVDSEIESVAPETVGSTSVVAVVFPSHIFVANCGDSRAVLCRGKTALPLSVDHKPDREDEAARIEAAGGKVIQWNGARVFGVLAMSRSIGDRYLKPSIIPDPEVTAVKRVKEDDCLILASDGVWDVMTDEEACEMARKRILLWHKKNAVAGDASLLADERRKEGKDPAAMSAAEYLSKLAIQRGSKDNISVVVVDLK
Change = R46W; value = -3.29%
Change = G108Q; value = -0.828%
Change = I133K; value = 8.93%
Change = H55Y; value = 12%
Change = K168S; value = 13.5%
Change = L82H; value = 27.2%
Change = Q31C; value = 0.952%
Change = L166M; value = 2.09%
Change = P83A; value = 20.6%
Change = R24Q; value = 58%
Change = L82E; value = -2.08%
Change = K168H; value = 24.3%
Change = R32T; value = 37.2%
Change = V121I; value = 4.34%
Change = V121H; value = -13.3%

Set 3
Target: Histone acetyltransferase KAT6A, both winged helices, GST fusion (KAT6A, Homo sapiens, UniProt Q92794, residues 1-181)
Method: protein binding microarray
Molecule type: double-stranded DNA, one strand shown
Sample: in vitro
Tested at: not given
Setting: 8-mer, flanks averaged, mean of 2 arrays, mostly near background
Reference: not given
Direction: higher = stronger binding
Endpoint: E-score
Target sequence (chain): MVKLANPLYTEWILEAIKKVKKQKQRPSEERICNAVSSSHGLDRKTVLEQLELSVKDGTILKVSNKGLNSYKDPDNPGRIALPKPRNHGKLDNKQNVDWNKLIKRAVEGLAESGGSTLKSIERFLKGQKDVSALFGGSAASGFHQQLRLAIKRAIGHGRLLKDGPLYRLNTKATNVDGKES
Oligonucleotide = TACAACCA; value = -0.127
Oligonucleotide = CTACGCAC; value = 0.0603
Oligonucleotide = CAAGACTC; value = -0.0779
Oligonucleotide = ATAGAGGG; value = -0.131
Oligonucleotide = CAACGTGA; value = -0.0986
Oligonucleotide = AAACTGAT; value = -0.0331
Oligonucleotide = GTCTGCCA; value = -0.0231
Oligonucleotide = ACCCGGTG; value = 0.201
Oligonucleotide = CTCTCAAC; value = -0.0789
Oligonucleotide = CAAAATAA; value = -0.178
Oligonucleotide = AGGTTGTA; value = -0.0381
Oligonucleotide = CACGGAGA; value = 0.184
Oligonucleotide = ACGCTAAA; value = 0.135
Oligonucleotide = AACTGGTG; value = -0.112
Oligonucleotide = AAGACCAG; value = -0.233
Oligonucleotide = ACAACAGC; value = 0.134
Oligonucleotide = CCGCTTTA; value = 0.177
Oligonucleotide = CTACCTTA; value = -0.0995
Oligonucleotide = GTCTACTA; value = -0.2
Oligonucleotide = ATAGGGTG; value = -0.187

Set 4
Target: Sal-like protein 4, full length isoform B (SALL4, Homo sapiens, UniProt Q9UJQ4-2, residues 1-616)
Method: universal PBM
Molecule type: double-stranded DNA, one strand shown
Sample: in vitro
Tested at: not given
Setting: 8-mer, flanks averaged, mean of replicates
Direction: higher = stronger binding
Endpoint: E-score
Residues (chain): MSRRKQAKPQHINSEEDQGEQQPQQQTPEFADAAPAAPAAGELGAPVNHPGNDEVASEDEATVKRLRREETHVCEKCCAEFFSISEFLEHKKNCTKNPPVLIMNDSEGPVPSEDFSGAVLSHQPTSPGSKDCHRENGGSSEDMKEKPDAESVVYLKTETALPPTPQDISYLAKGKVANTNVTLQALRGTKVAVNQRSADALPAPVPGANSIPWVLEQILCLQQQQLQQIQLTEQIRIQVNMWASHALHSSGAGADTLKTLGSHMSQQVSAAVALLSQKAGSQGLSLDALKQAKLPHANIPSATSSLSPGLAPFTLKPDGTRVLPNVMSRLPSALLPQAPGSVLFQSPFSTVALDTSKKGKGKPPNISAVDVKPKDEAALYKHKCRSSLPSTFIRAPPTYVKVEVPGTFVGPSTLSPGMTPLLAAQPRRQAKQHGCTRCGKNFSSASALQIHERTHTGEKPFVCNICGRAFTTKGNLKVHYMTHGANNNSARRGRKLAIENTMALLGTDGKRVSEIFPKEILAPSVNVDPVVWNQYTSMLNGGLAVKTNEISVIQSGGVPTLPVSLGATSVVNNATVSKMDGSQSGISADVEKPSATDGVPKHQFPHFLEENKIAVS
Oligonucleotide = ACTTAACT; value = 0.103
Oligonucleotide = AAAGATCA; value = 0.138
Oligonucleotide = CTTTAAGC; value = 0.0075
Oligonucleotide = TACCTATA; value = 0.237
Oligonucleotide = ACACTCAG; value = -0.138
Oligonucleotide = CTATTTTA; value = 0.306
Oligonucleotide = ATGTCACG; value = 0.0278
Oligonucleotide = CAAAGGAG; value = 0.0522
Oligonucleotide = CCAGGCCC; value = -0.324
Oligonucleotide = CGTTATCC; value = 0.114
Oligonucleotide = ACTTCGAG; value = -0.00337
Oligonucleotide = GTTCGATA; value = 0.18
Oligonucleotide = AAGTGCCT; value = -0.182
Oligonucleotide = CCGCCATA; value = 0.092
Oligonucleotide = CCTAGCCA; value = 0.0071
Oligonucleotide = ACTGCTAC; value = 0.0516

Set 5
Target: CCNE1, cyclin fold, Cln2 fusion (human)
Method: yeast growth competition, sequencing
Sample: yeast
Setting: weak parent motif
Reference: not given
Direction: higher = stronger binding
Endpoint: normalised enrichment score
Parent: CDAN1 docking peptide (human); RGARSQLFPPTEA
Change = P10A; value = 0.312
Change = G2A; value = -0.119
Change = R1A; value = 0.137
Change = E12A; value = -0.043

Set 6
Target: TEF, bZIP domain (human)
Method: DHFR protein complementation
Sample: yeast
Setting: single substitutions, most at no-binding floor
Reference: wild-type JUN-FOS pair
Direction: higher = stronger binding
Endpoint: binding fitness
Parent: JUN, bZIP domain (human); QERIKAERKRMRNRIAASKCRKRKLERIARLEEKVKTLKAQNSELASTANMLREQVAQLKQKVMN; partner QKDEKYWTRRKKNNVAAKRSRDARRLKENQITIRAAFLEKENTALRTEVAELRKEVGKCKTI
Change = A29G; value = -1.32 natural log
Change = A29Y; value = -1.04 natural log
Change = N42P; value = -1.52 natural log
Change = V35R; value = -1.53 natural log
Change = Q41L; value = -1.45 natural log
Change = L38H; value = -1.57 natural log
Change = Q41D; value = -1.38 natural log
Change = S43T; value = -1.43 natural log
Change = N42G; value = -1.47 natural log
Change = Q55N; value = -1.46 natural log
Change = R30S; value = -1.26 natural log
Change = V56G; value = -1.5 natural log
Change = K39C; value = -1.62 natural log
Change = N42E; value = -1.41 natural log

For quick reference, copied from above (set 2):
Change = R46W; value = -3.29%
Change = R32T; value = 37.2%
Change = K168H; value = 24.3%
Change = P83A; value = 20.6%
Change = L82H; value = 27.2%
Change = L82E; value = -2.08%
Change = K168S; value = 13.5%
Change = L166M; value = 2.09%
